Experimental data of several laboratories.
Each line is one published result; not all experiments were run side by side. “And” joins repeats or separate records; there may be more than shown. Numbers after ± are the reported error.

| Structure (SMILES) | organism | test | system | conditions | how to read | measurement | value |
| --- | --- | --- | --- | --- | --- | --- | --- |
| CC[C@H](C)[C@H](NC(=O)[C@H](CC(N)=O)NC(=O)[C@H](CC(C)C)NC(=O)[C@@H](NC(=O)[C@@H](N)Cc1ccccc1)[C@@H](C)CC)C(=O)N[C@@H](CC(C)C)C(=O)N[C@@H](CC(=O)O)C(=O)N[C@@H](CCCCN)C(N)=O | all tested microorganisms |  |  |  |  | geometric mean MIC | 256 µM |
| CCOC(=O)C1(Cc2ccc(F)cc2)Oc2cc(F)ccc2N(Cc2ccc(F)cc2)C1=O (stereo not shown) | Amaranthus retroflexus | fresh weight, greenhouse postemergence |  | postemergence, 150 g ai/ha, 21 days |  | inhibition | 50.5 ± 2.11% |
| Cc1cc(C(=O)Nc2nc3cccc(C)c3n2[C@H]2CCCCN(C(=O)/C=C/CN(C)C)C2)ccn1 | Trypanosoma brucei brucei |  | 2T1 CLK1 overexpressing | 1.25 µM, compound pretreated | baseline: maximum | survival | 185% and 206% and 187% and 162% |
| COc1ccc(Cn2c3cc(=O)n(Cc4cccc(Cl)n4)c(C)c3c(=O)n2-c2ccccn2)cc1 | human respiratory syncytial virus |  | recombinant reporter virus | concentration not given, scale 0 to 100, together with: cytidine 0.4 µM |  | normalized viral replication | 0 |
| [O-][N+]1=C(c2ccccc2)C2=NCCN2c2ccccc21 | Bacteroides fragilis |  |  |  |  | MIC90 | ≤ 0.06 µg/mL |
| CCc1nn(C)c2nc(-c3ccc(C(=O)O)cc3)nc(NCc3ccccc3)c12 | Cryptosporidium parvum |  | HCT-8 | 6 x EC90, 0 h | baseline: DMSO control | parasite number | 109% and 96.8% and 93.3% and 101% |
| CC1=C[C@@H](C)[C@H]2[C@@H]3C(=O)C(Cl)(Cl)C(=O)[C@H](C)C(=O)O[C@@H](C)/C=C/C=C\[C@@H](C)[C@@H]3C=C[C@@H]2C1 | Staphylococcus aureus |  | Newman compound-resistant mutant Mt7 | concentration not given | baseline: parent strain | MIC fold change | 8 |
| C#CCCCC(=O)N[C@H]1CCOC1=O | Escherichia coli | LuxR reporter, antagonist | DH5α sensor strain | 10 µM, together with: OHHL 200 nM |  | inhibition | 74% |
| CC(O)CN(CC(C)O)CC(C)O.O=C(O)C(Cl)Cl (stereo not shown) | Amaranthus retroflexus | herbicidal activity |  | 15 mg/mL, 21 days, post-emergence greenhouse |  | inhibition | -53% |
| O=[N+]([O-])c1ccc(C2=[N+]([O-])c3ccccc3N3CCCN=C23)cc1 | Bacteroides fragilis | microbial growth |  |  |  | MIC50 | ≤ 0.06 µg/mL |
| CN(C(=O)c1ccn2ncc(-c3ccc(C(N)=O)cc3)c2c1)c1ccc(C#N)cn1 | Cryptosporidium parvum |  | UGA1 Nluc, IFN-gamma knockout C57BL/6 mice, faeces | oral, 10 mg/kg daily, 264 h post infection, treatment days 3-9 | higher means more parasites | faecal Nluc luminescence | 63 a.u. and 18 a.u. and 230 a.u. and 82 a.u. and 55 a.u. |
| CCOC(=O)C1(Cc2ccccc2)Oc2cc(C)ccc2N(Cc2ccccc2)C1=O (stereo not shown) | Amaranthus retroflexus | fresh weight, greenhouse postemergence |  | postemergence, 150 g ai/ha, 21 days |  | inhibition | 43.1 ± 4.26% |
| CC(C)[C@H]1NC(=O)[C@H](Cc2ccccc2)NC(=O)[C@@H](C(C)C)NC(=O)[C@@H](C)NC(=O)[C@H](CO)NC(=O)[C@@H](Cc2c(-c3ccc(-c4ccc(-c5ccccc5)cc4)cc3)[nH]c3ccccc23)NC(=O)[C@@H](C)NC1=O | Vibrio vulnificus | broth dilution |  |  |  | MIC90 | > 50 µM |

Repeated from above:
| Structure (SMILES) | organism | test | system | conditions | how to read | measurement | value |
| --- | --- | --- | --- | --- | --- | --- | --- |
| CCc1nn(C)c2nc(-c3ccc(C(=O)O)cc3)nc(NCc3ccccc3)c12 | Cryptosporidium parvum |  | HCT-8 | 6 x EC90, 0 h | baseline: DMSO control | parasite number | 109% and 96.8% and 93.3% and 101% |
| CC(C)[C@H]1NC(=O)[C@H](Cc2ccccc2)NC(=O)[C@@H](C(C)C)NC(=O)[C@@H](C)NC(=O)[C@H](CO)NC(=O)[C@@H](Cc2c(-c3ccc(-c4ccc(-c5ccccc5)cc4)cc3)[nH]c3ccccc23)NC(=O)[C@@H](C)NC1=O | Vibrio vulnificus | broth dilution |  |  |  | MIC90 | > 50 µM |
